Experimental data from different studies.
Compare with care: the assays were run in different laboratories.
Cell line: Calu-3

Structure (SMILES) | assay | conditions | measurement | result
CO/C1=C\C(C)=C\[C@@H](C)[C@@H](O)[C@@H](C)C/C(C)=C/C=C/[C@H](OC)[C@@H]([C@@H](C)[C@@H](O)[C@H](C)C(=O)/C=C/[C@H](C)[C@H](O)C(C)C)OC1=O | cell growth or viability, resazurin | 48 h | CC50 | 43 µM
CCN(c1nc(N)c(C(=O)NC(=N)N)nc1Cl)C(C)C | ATP content | 48 (unit not given) | IC50 | > 30000 nM
CC(=O)OC1(C)CC(C=C(C)CCC=C(C)C)OC2(C=C(CO)C3CC(=O)C(C)=CC3O2)C1 (centres unmarked) | cell growth or viability, resazurin | 48 h | CC50 | > 100 µM
Nc1nccnc1C(=O)Nc1nc2ccc(OC(F)(F)F)cc2s1 | ATP content | 48 (unit not given) | IC50 | 2240 nM
O=C1C(O)=C(Nc2ccc(F)cc2)C(=O)c2ccccc21 | cell growth or viability | 72 h | CC50 | 67 µM
C[C@H]1[C@H](OC(=O)CC[C@@H](C)C2CCC3C4C(CC[C@@]32C)[C@@]2(C)CC[C@@H](O)CC2C[C@@H]4O)O[C@@H]2O[C@@]3(C)CCC4[C@H](C)CC[C@@H]1[C@]42OO3 (some centres unmarked) |  | up to 20 µM | cytotoxicity | not toxic
O=C1C(O)=C(Nc2cccc(C(F)(F)F)c2)C(=O)c2ccccc21 | cell growth or viability | 72 h | CC50 | 48 µM
COC(=O)CC[C@@H](C)C1CCC2C3C(CC[C@@]21C)[C@@]1(C)CC[C@@H](n2cc(CO[C@H]4O[C@@H]5O[C@@]6(C)CCC7[C@H](C)CC[C@@H]([C@H]4C)[C@]75OO6)nn2)CC1C[C@@H]3O (some centres unmarked) |  | up to 20 µM | cytotoxicity | not toxic

For quick reference, copied from above:
Structure (SMILES) | assay | conditions | measurement | result
COC(=O)CC[C@@H](C)C1CCC2C3C(CC[C@@]21C)[C@@]1(C)CC[C@@H](n2cc(CO[C@H]4O[C@@H]5O[C@@]6(C)CCC7[C@H](C)CC[C@@H]([C@H]4C)[C@]75OO6)nn2)CC1C[C@@H]3O (some centres unmarked) |  | up to 20 µM | cytotoxicity | not toxic
